Results gathered from unrelated publications.
Each numbered part is a random draw from the data of one study; scales do not carry over between parts. Changes are numbered by the printed parent chain.

Series 1
Target: Centromere-binding protein 1, full length, His-tagged (CBF1, Saccharomyces cerevisiae, UniProt P17106, residues 1-351)
Sequence of UniProt P17106 (whole entry, looked up): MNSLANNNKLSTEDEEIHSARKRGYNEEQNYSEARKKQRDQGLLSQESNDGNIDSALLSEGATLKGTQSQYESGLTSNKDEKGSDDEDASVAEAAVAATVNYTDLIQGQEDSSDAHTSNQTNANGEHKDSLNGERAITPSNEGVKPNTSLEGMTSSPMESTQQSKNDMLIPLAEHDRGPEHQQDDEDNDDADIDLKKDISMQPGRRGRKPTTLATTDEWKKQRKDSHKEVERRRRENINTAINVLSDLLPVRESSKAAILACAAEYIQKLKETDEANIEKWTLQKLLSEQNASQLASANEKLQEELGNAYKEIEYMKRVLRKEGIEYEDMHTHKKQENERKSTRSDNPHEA
Method: competition protein-binding microarray
Molecule type: double-stranded DNA, one strand shown
Sample: in vitro
Concentration: 2 µM
Notes: whole 60-bp probe, lowest competitor level
Together with: Pho4 competitor, 0.05 µM
Direction: higher = stronger binding
Shared flanks, not repeated: … GTCTTGATTCGCTTGACGCTGCTG
Strand | fluorescence intensity [a.u.]
CGTCCTAGTGATTGGCGCGTGGGTGCCATGAGGAAG | 92.1
CATACCCAACCTTGGCTTGTGGGTGAAGATATTTGT | 58.7
GTCTTGTCTCATTGGACGGTGGGTGTCCCCACTTCA | 70.7
CTTGCATTGACCGCGAACGTGTAACCACAAGCAAAG | 75.9
CGTCCTAGTGATTGTTTGGTGGGTGCCATGAGGAAG | 89.8
CTAACGAAGGTTTGGATGGTGGGTGACAAGCCAAGT | 61.5
CGTCCTAGTGATTGCGCGGTGGGTGCCATGAGGAAG | 87.4
TCAAATATGCACCATCTCGTGATGGTTCAAAGATTG | 358
TTCATTGATGAAATTCACATGTTAATGGGTAATGGT | 164
CATACCCAACCTTGCGCAGTGGGTGAAGATATTTGT | 76.3
CAGCTGGTTCTAACTCAGCTGATGGAACCTGCTTTC | 63.4
CGGGGTTAAGTTTGTTGGGTGGGTGGCTTGCAGCAG | 76.3
GTCTTGTCTCATTGCCTTGTGGGTGTCCCCACTTCA | 65.7
TTGTTTGCCTCCGTCGGTGTGACGGAGTTGTGGCCT | 59
AGATCGACGGAAGAGAACGTGCAAACCTTTGGGCTG | 112
TGTACCATAGGTGTCCACATGTAAAGACAATGGTTC | 98.3
TGCGCAACAACTTGAGCTGTGGGTGTATGTCTAGAA | 61.9
AATAGGCGCCAAGTTTCCGTGGGTAACTATGACTTT | 68.7
GTCTTGTCTCATTTTCACGTGGGTTTCCCCACTTCA | 600

Series 2
Target: Histone acetyltransferase KAT6A, winged helix 1, GST fusion (KAT6A, Homo sapiens, UniProt Q92794, residues 1-85)
Method: protein binding microarray
Molecule type: double-stranded DNA, one strand shown
Sample: in vitro
Concentration: not given
Notes: 8-mer, flanks averaged, mean of 2 arrays, mostly near background
Relative to: not given
Direction: higher = stronger binding
Target sequence (chain): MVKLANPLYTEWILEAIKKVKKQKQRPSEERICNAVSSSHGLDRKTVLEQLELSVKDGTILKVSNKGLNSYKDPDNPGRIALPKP
Strand | E-score
CGGCTCAG | 0.263
CGATAGGC | 0.11
CCGCTCCC | 0.377
GGTTCGAC | -0.0383
AAATCGTT | -0.125
GTTATTGA | -0.203
AGTATGTC | -0.0759
AGCGAGCG | 0.192
ATGCGCGC | 0.446
TAAATTCA | -0.17
AACAACCG | 0.00247
AGTTCTTG | -0.101
GCGTTTCA | 0.204
GGGACGCA | 0.13
CTTCGACC | -0.0616
CGTGCTCA | -0.0784
CATCTGAC | -0.162
AATATAGC | -0.0542
CTATAGTA | -0.00856

Series 3
Target: ABI1, truncated, D143A, DHFR fusion (Arabidopsis thaliana)
Method: DHFR PCA, deep sequencing
Sample: yeast
Notes: methotrexate growth selection, single substitutions
Together with: (+)-ABA 4.8 µM
Relative to: wild-type fitted maximum
Direction: higher = stronger binding
Parent: PYL1, truncated, DHFR fusion (Arabidopsis thaliana); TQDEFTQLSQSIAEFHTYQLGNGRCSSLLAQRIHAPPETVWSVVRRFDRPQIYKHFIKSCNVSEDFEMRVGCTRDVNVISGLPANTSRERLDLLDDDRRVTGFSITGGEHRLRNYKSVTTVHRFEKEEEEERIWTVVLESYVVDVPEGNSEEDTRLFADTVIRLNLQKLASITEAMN; partner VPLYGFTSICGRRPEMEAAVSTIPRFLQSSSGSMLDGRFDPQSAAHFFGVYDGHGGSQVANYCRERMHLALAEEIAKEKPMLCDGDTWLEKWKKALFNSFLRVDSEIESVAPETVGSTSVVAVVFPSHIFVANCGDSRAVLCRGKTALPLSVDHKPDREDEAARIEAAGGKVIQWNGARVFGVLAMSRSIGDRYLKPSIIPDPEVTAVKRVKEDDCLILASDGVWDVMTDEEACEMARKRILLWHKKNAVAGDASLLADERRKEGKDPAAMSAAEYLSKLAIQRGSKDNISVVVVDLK
Substitution | relative binding score
V43H | 5%
Q19Y | 54.4%
R69Y | 37.3%
R155H | 10.9%
V142P | -16.9%
N149C | 28.6%
S117Q | 11.9%
T160N | 31.2%
T173P | 2.82%
I52N | 48.3%
T106N | 12.2%
I105Q | 12.4%
V137M | -4.57%
G81D | -5.63%
I79R | 31.6%
W41V | -2.47%
Y141L | -7.99%

Series 4
Target: RNA binding protein fox-1 homolog 2, RRM domain, GST-SBP tag (RBFOX2, Homo sapiens, UniProt O43251-10, residues 100-194)
Method: RNA Bind-n-Seq
Molecule type: RNA
Sample: in vitro
Concentration: 365 nM
Notes: natural RNA segment, single round, ends assumed
Relative to: no-protein control
Direction: higher = stronger binding
Shared flanks, not repeated: GGGAGUUCUACAGUCCGACGAUC … UGGAAUUCUCGGGUGCCAA
Residues (chain): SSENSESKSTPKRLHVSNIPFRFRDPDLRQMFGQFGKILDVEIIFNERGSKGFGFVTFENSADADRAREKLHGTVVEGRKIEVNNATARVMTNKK
Strand | RBNS enrichment (R)
UGGCCCGGCCAGCCACCGUCCCCAGCACCCAAGCAUGCAAUUGCCUGUCCCCCCCGGCCAGCCUCCCCAACUUGAUGUUUGUGUUUUGUUUGGGGGGAUAUUUUUCAUAA | 7.77
CUGGAAAAAAAAUUAUUAAUAAUGUGAAACAAACCAACUUAAAAAGUGAUUCUUGCACAUGAAUUGUCACAUAUUAUAUGUGUUUUUUAAAGAGCCUCAGUCUGACUGAU | 1.51
CUGUCUCCAUACCUUCCUCUCCUAGUCCUUUUCUUCCACCCAGGCUUCAUAGCUCCGCCCCAGUUGUGGCAGGAGACAUUCGAACAGACGUUUAGACGUUUAGAGUCCUC | 0.381
GCGUAUUUAUUUAAGGCGAAAGCUUUGACCUGAGCUGUCUUCCUCUCCCCUGUACAUGUACUGUAGAAAUGUGUGAUGACAAACGGACUAAUAAAGAACAUUUGGUUGGU | 0.923
UGAGUUGCUGACUGAAUCUAUCUUAUACUGUGCUUCUGCAACAACAAAAAUUAUGCAGAAAAAUUCAUUUGAAUAUCCAUCACUUAAAUGGUGACAAUAACAACUUCAGA | 0.531
UGUCUACAAGAAUAAGUUUGUUUUGGAAAGUUGAGCUAUAGCUACAGCUCUAGCUAUCCAGCAGACUUUUCAUUAUGACUUACAUGGCAGGAGCUCUAAUUAUGCUUUAA | 0.351
UCCCUAGAAAGCCAUAUUCCAGCAAUGAACCUUGUGCUAUAGUGACUCCCACCUGUACAUACAUUGUAUAGGCCACCUGUACAUAUCCCAGAGAACAAUCACUAUUCUUA | 0.419
UUUGCUACAGGAGUGUAGAGACAGACAGCCCCAAGAGCUGUCAGCAUUGGAAGCCAGACUUGAUUCUGAGACAUGUUGAAUUGCUUUUUCCUCUCCCAUCAAAUGGCAUU | 0.354

Some of these lines once more (series 1):
Strand | fluorescence intensity [a.u.]
GTCTTGTCTCATTGGACGGTGGGTGTCCCCACTTCA | 70.7
TTGTTTGCCTCCGTCGGTGTGACGGAGTTGTGGCCT | 59
CAGCTGGTTCTAACTCAGCTGATGGAACCTGCTTTC | 63.4
CTTGCATTGACCGCGAACGTGTAACCACAAGCAAAG | 75.9
GTCTTGTCTCATTGCCTTGTGGGTGTCCCCACTTCA | 65.7
CATACCCAACCTTGGCTTGTGGGTGAAGATATTTGT | 58.7
GTCTTGTCTCATTTTCACGTGGGTTTCCCCACTTCA | 600
CTAACGAAGGTTTGGATGGTGGGTGACAAGCCAAGT | 61.5
AATAGGCGCCAAGTTTCCGTGGGTAACTATGACTTT | 68.7
TGCGCAACAACTTGAGCTGTGGGTGTATGTCTAGAA | 61.9
